Measured values gathered from unrelated publications.
Each line is one published result; not all experiments were run side by side. ± marks the error that the study gave.

Compound = O=C(c1ccc(OCCN2CCCCC2)cc1)c1c(-c2ccc(O)cc2)sc2cc(O)ccc12; test system = healthy humans, plasma; setting = oral, 60 mg, together with: water; half-life = 24.9 h
Compound = Cc1ccc(NC(=O)c2ccc(CN3CCN(C)CC3)cc2)cc1Nc1nccc(-c2cncc(-c3oncc3C)c2)n1; test system = older healthy human adults, plasma; setting = oral, 25.0 mg single dose, fed, mean; half-life = 25.9 h
Compound = CCn1c(C(=O)c2cc(C)cc(C#N)c2)c(C(C)C)c(=O)[nH]c1=O; test system = healthy humans, plasma; setting = oral, 75 mg once daily, 7 days; half-life = 22.1 ± 5.4 h
Compound = Cc1cccc(C)c1N(CC(=O)Nc1ccc(-c2ncon2)cc1)C(=O)C1CCS(=O)(=O)CC1; test system = human male, plasma; setting = oral, 1200 mg single dose, geometric mean, alone; half-life = 7.2 h
Compound = Nc1ccc(-c2nc([C@H]3CCc4cc(-c5cc(Cl)ccc5-n5cnnn5)cc(=O)n43)c(F)[nH]2)c(F)n1; test system = human, plasma; setting = oral, 80 mg, single dose, fed; half-life = 18.5 h
Compound = N[C@@H](Cc1ccc(O)c(O)c1)C(=O)O; test system = human, plasma; setting = inhalation, range and mean; half-life = 0.567 to 1.55 h
Compound = CCN1CCN(Cc2ccc(Nc3ncc(F)c(-c4cc(F)c5nc(C)n(C(C)C)c5c4)n3)nc2)CC1; test system = human patients, plasma; setting = oral, 200 mg, single dose, geometric mean; half-life = 17.7 h
Compound = C=C(C)[C@@H]1CC[C@]2(NCCN3CCS(=O)(=O)CC3)CC[C@]3(C)[C@H](CC[C@@H]4[C@@]5(C)CC=C(C6=CC[C@@](CF)(C(=O)O)CC6)C(C)(C)[C@@H]5CC[C@]43C)[C@@H]12; test system = healthy human volunteers; setting = oral, 200 mg, capsule, moderate-fat meal, geometric mean; half-life = 26.2 h
Compound = CS(=O)(=O)n1cc2c(n1)CN([C@H]1CO[C@H](c3cc(F)ccc3F)[C@@H](N)C1)C2; test system = healthy male human, plasma; setting = oral, 12.5 mg single, fasted, geometric mean; half-life = 68.9 h
Compound = O=C(NC[C@H](O)CO)c1ccncc1Nc1ccc(I)cc1F; test system = human patients, plasma; setting = oral, 60 mg single dose, day 1, median, together with: FOLFIRI; half-life = 5.56 h
Compound = CCCCC1(CCCC)CN(c2ccccc2)c2cc(SC)c(OCC(=O)N[C@@H](C(=O)NCC(=O)O)c3ccccc3)cc2S(=O)(=O)C1; test = LC-MS/MS; test system = human, plasma; setting = oral, 15 mg, single dose, before breakfast; half-life = 2.98 h
Compound = CN(Cc1cnc2nc(N)nc(N)c2n1)c1ccc(C(=O)N[C@@H](CCC(=O)O)C(=O)O)cc1; test system = human; setting = oral, day 8, together with: isavuconazole; half-life = 3.7 h
Compound = CCCCOC(=O)N1CCN(C(=O)[C@H](CP(=O)(O)O)NC(=O)c2cc(N3CC[C@H](OC)C3)nc(-c3ccccc3)n2)CC1; test system = healthy human, plasma; setting = subcutaneous, 4 mg, together with: rifampin 600 mg i.v.; how to read = geometric mean; half-life = 2.5 h
Compound = COc1cc2ncnc(Nc3ccc(F)c(Cl)c3)c2cc1OCCCN1CCOCC1; test system = human, plasma; setting = oral, 250 mg, mean; half-life = 23.8 h
Compound = CN(CCOc1ccc(CC2SC(=O)NC2=O)cc1)c1ccccn1 (stereo not drawn); test system = human, both sexes, plasma; setting = oral, 4 mg, day 3, mean, together with: SCY-078 750 mg; half-life = 4.6 h
Compound = COc1ccc2[nH]c([S+]([O-])Cc3ncc(C)c(OC)c3C)nc2c1 (stereo not drawn); test system = healthy male humans, plasma; setting = oral, at end of metamizole treatment; half-life = 0.75 h
Compound = CCOc1ccc(Cc2cc([C@]34OC[C@](CO)(O3)[C@@H](O)[C@H](O)[C@H]4O)ccc2Cl)cc1; test system = human, type 2 diabetes, severe renal impairment, plasma; setting = oral, 15 mg; half-life = 24.2 ± 6 h
Compound = COC(=O)C(c1ccccc1Cl)N1CCC(S)C(=CC(=O)O)C1 (stereo not drawn); test system = human patients, CYP3A4 wt/wt, plasma; setting = 75 mg clopidogrel daily, day 7, median; half-life = 0.65 h
